Measurements gathered from unrelated publications.
Numbered parts are unrelated; each lists some results of a single study.

Study 1
Target: Phosphate system positive regulatory protein PHO4, full length, GST-tagged (PHO4, Saccharomyces cerevisiae, UniProt P07270, residues 1-312)
Method: competition protein-binding microarray
Form: double-stranded DNA, one strand shown
Matrix: in vitro
Concentration: 2 µM
Notes: whole 60-bp probe, lowest competitor level
Added: Cbf1 competitor, 0.05 µM
Reading: higher = stronger binding
Measurement: fluorescence intensity
Residues (chain): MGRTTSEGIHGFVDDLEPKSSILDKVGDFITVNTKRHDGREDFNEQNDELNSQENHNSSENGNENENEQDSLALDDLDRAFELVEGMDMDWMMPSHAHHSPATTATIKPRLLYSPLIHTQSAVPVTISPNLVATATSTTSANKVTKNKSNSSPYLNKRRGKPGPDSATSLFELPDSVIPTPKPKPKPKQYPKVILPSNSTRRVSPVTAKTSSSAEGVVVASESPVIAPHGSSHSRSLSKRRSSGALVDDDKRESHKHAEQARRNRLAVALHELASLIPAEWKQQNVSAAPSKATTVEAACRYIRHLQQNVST
TCGGAGTACAATCCAGTCGTGCCAGTCGAATGGTAGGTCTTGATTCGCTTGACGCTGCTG: 7290 a.u.
CATACCCAACCTTGGTTAGTGGGTGAAGATATTTGTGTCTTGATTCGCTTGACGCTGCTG: 4190 a.u.
CTTCTGTAAATTTGCATCGTGGGTGGACGCGCCCCGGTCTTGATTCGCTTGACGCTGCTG: 11200 a.u.
TTACGGGACTTTTGTCATGCGGGCTGTCAAGCAGGCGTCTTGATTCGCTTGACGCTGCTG: 4880 a.u.
GTCTTGTCTCATTGAGGGGTGGGTGTCCCCACTTCAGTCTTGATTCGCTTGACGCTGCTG: 4920 a.u.
TCCCTGTTTATTTCACACGTCGCTTTGACTGCATACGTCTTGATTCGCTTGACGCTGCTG: 5740 a.u.
CGTCCTAGCGATTGAAGTGTGGGTGCCATGAGGAAGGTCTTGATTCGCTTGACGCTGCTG: 7520 a.u.
CTTCTGTAAATTTTTCACGTGCAATGACGCGCCCCGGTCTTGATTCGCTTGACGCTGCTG: 14000 a.u.
ACCGCGGACGACGGCCACGCAGGCAAAGAATGCTTTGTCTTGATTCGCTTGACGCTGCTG: 6850 a.u.
TCGAGGCAAGCTCAAAACGTGACGGCTACACCCCCTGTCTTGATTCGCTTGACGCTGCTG: 11400 a.u.
TGCGCAACAACTTGCATTGTGGGTGTATGTCTAGAAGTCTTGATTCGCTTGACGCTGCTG: 6090 a.u.
AAATTACTAAGTTGTTATGTGGGTGACGCCGTATGAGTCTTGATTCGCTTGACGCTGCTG: 4230 a.u.
CTAACGAAGGTTTGTACCGTGGGTGACAAGCCAAGTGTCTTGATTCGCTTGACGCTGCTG: 5570 a.u.

Study 2
Target: RING finger protein unkempt homolog, zinc fingers 1-6, GST-SBP tag (UNK, Homo sapiens, UniProt Q9C0B0, residues 30-357)
Method: RNA Bind-n-Seq
Form: RNA
Matrix: in vitro
Concentration: not given
Notes: RNA with constant flanks, ends assumed
Relative to: input RNA pool
Reading: higher = stronger binding
Measurement: bound/input enrichment
Construct (chain): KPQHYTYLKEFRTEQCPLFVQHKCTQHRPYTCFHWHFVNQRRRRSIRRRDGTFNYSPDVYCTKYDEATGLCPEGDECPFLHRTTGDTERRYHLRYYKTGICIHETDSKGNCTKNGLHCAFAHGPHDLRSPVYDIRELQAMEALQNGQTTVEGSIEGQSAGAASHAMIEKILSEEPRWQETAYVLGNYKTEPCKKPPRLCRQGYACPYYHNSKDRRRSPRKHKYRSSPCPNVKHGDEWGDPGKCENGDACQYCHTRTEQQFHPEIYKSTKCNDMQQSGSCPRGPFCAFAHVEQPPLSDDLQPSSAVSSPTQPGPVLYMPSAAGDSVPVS
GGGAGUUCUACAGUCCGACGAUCGUGGCUUCAUUUUCUUUGAAUUGAAAUGAAAUACAGAUUUUUUUUUUGUAUGACUUUUGCCCGCUAUAACUACUUCAACUAAUAAGAAAGAACAGCUUUAAGCCAAAACCAAAGGUCAUUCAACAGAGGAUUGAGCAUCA: 0.212 ratio
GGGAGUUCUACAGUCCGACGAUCGAAAAACUUUUUGCUGAAGACACAGAAGCAAAGAACCCAUUUUCUACUCAGGACACAGAUUCCGACUUGGAGAUGUUAGCUCCCUAUAUCCCAAUGGAUGAUGACUUCCAGUUACGUUCCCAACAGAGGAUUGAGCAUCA: 0.255 ratio
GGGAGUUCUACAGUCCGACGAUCGCCUAGUCUGUGUAAGCAAGAAGUAGGACCAAACUGAGGAAACUACUUGGUCCAUUCCGACCGCAGUUUAUUCAUACUCAGUGACCCGCAGGCCUCCACCUCUGCUUGAGGGAAGGGCUUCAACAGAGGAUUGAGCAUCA: 0.151 ratio
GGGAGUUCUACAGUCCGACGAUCUGUGUUAUUCGUUGUUUAGUGAAGAAGAGGGCUCUUAUUGCAGGAGGUGGUGCUCCAGAAACCGAGUUGGCCCUACGAUUAACUGAAUAUUCACGAACACUGAGUGGUAUGGAAUCCUACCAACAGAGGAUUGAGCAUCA: 0.0873 ratio
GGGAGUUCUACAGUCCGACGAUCGAACAGAUUGUGGAUUUCUUAAAGAAGAAGCAUGAUUUUGUAGACCUUAUUAUAAAGCACACCGGAACUUCUGCUAUCAUGGAUUUGUUGCUCAGGCUCCUGACGUGUAUCGAACCUCCACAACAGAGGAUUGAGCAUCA: 0.53 ratio
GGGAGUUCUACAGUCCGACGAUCGAGUGCUUAAGCUGCCAACAGUUAGAAGAUGCUAUUUAUUUGUGUCUGUAAGUUUGUACACCGUAAUGCCAGCCUUGUUGCUGAAUUUUUUAUUUGGGGGGAGAUGACUUUGAAUUUUGUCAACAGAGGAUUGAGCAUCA: 1.41 ratio
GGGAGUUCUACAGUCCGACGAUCUUUCUCUUCCACAUGAAAGUAGUAGUUCAGAUGCAAGCUAAGCUGUUUAAUAAGAUUGUUUUCCGUUUAUGUAAAUACUUGUAAAUUGGUCAGUACCUGUAUUGUACAUUUAAAUAUAAACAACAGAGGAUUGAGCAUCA: 0.751 ratio

Study 3
Target: RNA binding protein fox-1 homolog 2, RRM domain, GST-SBP tag (RBFOX2, Homo sapiens, UniProt O43251-10, residues 100-194)
Method: RNA Bind-n-Seq
Form: RNA
Matrix: in vitro
Concentration: 365 nM
Notes: natural RNA segment, single round, ends assumed
Relative to: no-protein control
Reading: higher = stronger binding
Measurement: RBNS enrichment (R)
Construct (chain): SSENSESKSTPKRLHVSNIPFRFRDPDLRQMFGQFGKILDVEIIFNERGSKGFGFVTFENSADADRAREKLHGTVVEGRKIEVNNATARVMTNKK
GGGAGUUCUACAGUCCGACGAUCCGCUGUUUCCUGCACUUAAGCCUUGGCAGGAGCCAAGGUCUAUGGUUUUUUGAGAUGAAGCAUUUGUUACAGAUAAUUGGGUAGAGUGGAGUGUAUCUGCUUAAGGGGUGUGGAAUUCUCGGGUGCCAA: 0.621
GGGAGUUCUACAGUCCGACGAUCUGUAGUUGCUUAUUCUUUCUGCCUUCUGCUUCAGCGUGAGGCUUCUUUGGUUUUCUGUGGCAGCGUCUCCCUUCUCAUUGUUUCUCUGUGUUUUAGUGGGGAUAGUACCAUGGAAUUCUCGGGUGCCAA: 0.481
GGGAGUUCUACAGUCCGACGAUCCCAUCUGUCUUCAUGAUUGUACUUGAGCAGUAUUAGCUGUAUGAGUUAAUUUUAUUCAGAUUGAAGAUGGAGGGCUGGGUUCUGCUCACUCAGUCUUUUUUUUUUUUUUUUGGAAUUCUCGGGUGCCAA: 0.627
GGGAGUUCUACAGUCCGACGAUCUCUUCCAGGCCAAAGUAUGUUGCUGCUUCCUGUCUCCACUGGUCCCCACCUACCCUGGCACUUGCCCUGUGACAUGAUGGGUGAGGCUGUGGGGGAACUCAGUGGCAGGAUGGAAUUCUCGGGUGCCAA: 0.464
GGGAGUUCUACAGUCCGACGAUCCCAGCUCCCCUCAACGCUAUAUUUUGACACUAAAAAAGAAGGUUUCUAAAUUGUAGGAGCAGGAUGGAAAUACUUUGCUGCCCUUGCCAUCUUUUAGGAUGGGCCCCCAGUGGAAUUCUCGGGUGCCAA: 0.866
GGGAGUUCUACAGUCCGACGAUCGCCAGGCUGCCAGGAGAUCGCGGAGGAGUUCCGUGCGCAGGAGAUUGAUGGGCAAGCCUUGCUGCUGCUCAAGGAGGACCACCUAAUGAGCGCCAUGAACAUCAAGCUAGUGGAAUUCUCGGGUGCCAA: 1.33
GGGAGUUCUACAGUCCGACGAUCAACCCACUCAGCAAAGUUGCCAACCUCGACGGGCUAGCAGUGUCUAAGCAGCGAUGGGUUCAGUGUUGUGUGUGGUGAAUACUGUAUUUUGUUUCAGUUCUGUCUCCCAGUGGAAUUCUCGGGUGCCAA: 0.282

Study 4
Target: Fragile X messenger ribonucleoprotein 1, C-terminal low-complexity region (Fmr1, Mus musculus, UniProt P35922)
Method: RNA Bind-n-Seq
Form: RNA
Matrix: in vitro
Concentration: 200 nM
Notes: whole 134-nt RNA, ends assumed
Added: 150 mM LiCl
Relative to: input library
Reading: higher = stronger binding
Measurement: log2 enrichment
Library: 7-deaza-guanosine replaces G
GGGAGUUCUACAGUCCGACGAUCCCUGUGCUACACAUCGUAUGUACCGAAUCGGGGAAAAAAGGGGAAAAAAGGGGAAAAAAGGAAAGUAUUAUGUUACGCCGUUCGGAUCUGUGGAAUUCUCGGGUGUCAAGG: 0.965
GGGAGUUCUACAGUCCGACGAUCCUGUGCUACACAUCGUAUGUACCGAAUCGGGAAAAAAAGGAAAAAAAGGGGAAAAAAAGGGGAAAGUAUUAUGUUACGCCGUUCGGAUCUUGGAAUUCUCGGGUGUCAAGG: 0.333
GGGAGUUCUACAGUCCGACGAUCUGGCCCUGGUGGCAUGCGGGGAGGAAGAGGUGGCCUCAUGGAUCGUGGUGGUCCCGGUGGAAUGUUCAGAGGUGGCCGUAGUGGAGACAGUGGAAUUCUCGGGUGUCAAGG: -0.661
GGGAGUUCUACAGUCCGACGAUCUCAAGUCCUGUGCUACACAUCGUAUGUACCGAAUCGGAAAGGUGGUUUUUUUGGAAAGUAUUAUGUUACGCCGUUCGGAUCUGCACUUCCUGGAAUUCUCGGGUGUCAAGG: -0.286
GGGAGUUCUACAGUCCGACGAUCACCAUGCAGGUGGGCAUCUUUGGGAAGUGGGGCAAGGGGGGGAUAGGGAGGGGGGUAACACUUUGGGAAAAGGUGGUCCCAGGUCGUUUCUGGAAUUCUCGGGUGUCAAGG: 1.4
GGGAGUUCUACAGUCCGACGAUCCCUGUGCUACACAUCGUAUGUACCGAAUCGGGCCCCCCCGGCCCCCCCGGGCCCCCCCGGGAAAGUAUUAUGUUACGCCGUUCGGAUCUGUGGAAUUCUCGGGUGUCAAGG: 0.752
